Measured values gathered from unrelated publications.
Numbered parts are unrelated; each lists some results of a single study.
UniProt Q9C0B0, sequence (30-357, looked up): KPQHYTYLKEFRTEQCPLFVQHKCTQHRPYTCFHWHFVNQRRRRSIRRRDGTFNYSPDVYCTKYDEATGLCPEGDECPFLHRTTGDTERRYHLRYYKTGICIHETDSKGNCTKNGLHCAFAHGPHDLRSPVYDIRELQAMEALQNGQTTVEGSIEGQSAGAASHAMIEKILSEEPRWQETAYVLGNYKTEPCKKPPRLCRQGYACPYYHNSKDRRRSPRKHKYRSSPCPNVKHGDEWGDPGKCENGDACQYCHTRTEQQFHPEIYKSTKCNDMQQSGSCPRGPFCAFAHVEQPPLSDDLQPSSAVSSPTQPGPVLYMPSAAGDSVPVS

Sample 1
Target: Interferon regulatory factor 5, full length, phosphomimetic (IRF5, Homo sapiens, UniProt Q13568-2, residues 1-514, K96S/S451D/S453D/S456D/S462D)
Method: protein-binding microarray
Form: double-stranded DNA, one strand shown
Matrix: in vitro
Concentration: 250 nM
Notes: 60-bp whole probe
Added: salmon DNA 0.4 mg/ml
Relative to: random background probes
Reading: higher = stronger binding
Constant ends, left off below: GCCTAGCAC … GTCTTGATTCGCTTGACGCTGCTG
Sequence | log fluorescence [z-score]
GACGGTCTCCTTTTCCTGAAGTGCTAG | 0.146
TTAGGATTCCTTCTCCTTTAGTGCTAG | 0.164
GACCAACTGGGGTATCGAGACGTGCTA | 0.168
GACGGACAGCTACTGCTGACGTGCTAG | -0.6
TCACCTTTCTGCCTCAGACTGTGCTAG | 1.67
GACGGACTGTACTTTCGGGACGTGCTA | 5.64
GATGATTTCAGACTGGAGACGTGCTAG | 0.245
TTAGGTATCGACCATCGGTTAGTGCTA | 3.02
GACGATTTCGGGACTGGTGACGTGCTA | 1.65
GACGGCATCGGGTATCGGGACGTGCTA | 0.26
GACCATATCAGTTTCGAGACGTGCTAG | 5.91
TTCCAATTCTCTTTTCACTTGTGCTAG | 2.14
GACGGTTTCGCTTTCGGGACGTGCTAG | 9.07
TTAGGTATCGACTTTCGGGTAGTGCTA | 8.4
TTAGGTATGGGGTTTCGGTTAGTGCTA | 6.52
GACGAACTGAGTCTCGACACGTGCTAG | 0.0274
TCATTTTTCTGAACCATACTGTGCTAG | 0.969
TTAGGTATTCTTATCCTTTAGTGCTAG | 0.142
TCACTTTGCTTTCTCCCACTGTGCTAG | 2.27

Sample 2
Target: RNA binding protein fox-1 homolog 2, RRM domain, GST-SBP tag (RBFOX2, Homo sapiens, UniProt O43251-10, residues 100-194)
Method: RNA Bind-n-Seq
Form: RNA
Matrix: in vitro
Concentration: 365 nM
Notes: natural RNA segment, single round, ends assumed
Relative to: no-protein control
Reading: higher = stronger binding
Constant ends, left off below: GGGAGUUCUACAGUCCGACGAUC … UGGAAUUCUCGGGUGCCAA
Sequence | RBNS enrichment (R)
AUCCGUUCUCAAACUCCGGUGUGCCCACAUCUGCCUCCUCACCAGCCUGGUCUGUAUUUAAAGCUUUUGAGACCCAAUAAAAUAGUACCUGCUGUCUGCAGCCUUACUGU | 0.494
GAUACUCCCUUGUGUGUUCUGUCCUAUCCAGAUGGCCUGCUAGAUUGAAUUAUACUCACCAACACAUAGAACAGGCCCUUUAGAAGGCACUAGGUGUUUGGAGGUGAGCU | 1.23
AGAGAUCUAAGUCUGAUAUUUAAGGAGUGAUAGCAUCUUGCAUACUUAAGAAGGCUUAAAAGACUGCAUGGUUUAAACCCUAGAAACAUAAAUGGAAUGUUUCUGCCUCA | 4.38
CCCCCACUAGAAACCCACUUCCAGAGUCAUGUUUGCAUCACAGUCAAAAGAGAAGUCUGUGCACCUCAAGUGAGGUCCCAGGAGCUUUCCUCGCCCUCCAAACCAAGCAU | 0.516
GGGUUGGGAGGGUCUUUUAUUUUUUUCCUCUGAAAUAAAGCAGUGCUGUUUUCAAAUGAAGCCGUGUGGAUAUUUCAGCGUGCUGCUCCCUGUUGUCUGGAAACAGUUGA | 0.668
GCUGGGACAGUUCAGGUAGGGCAGGUGAGGGACCCCCGAGGCCCUGGAGCCUUGUCCUGGGAUGGGUUUGAAGAACUCAUCACUCAUCACUUGUUUUCUUUUGGCUUUUG | 0.809
UUUCCCCCUUCUUGUUUGCACAUGCCAAGAUAACUGCUUUUAUGCAGGCUGUACCCCCUUGAAAAAUCCUUUCUACAGUGCUGCUCACAAAAGAGCCCAAGUUCGCCUCC | 1.06
AAGAAAGGAGGGGGAAAAUCCAGCGUGCCCCAUCUCCUACCCACCCCCUCUUUGUAUUCUCUUUGUAUUUUUCCCCUUCUUAAAAUUUCUUUUUCUGCAAUGAAGACAGA | 0.982

Sample 3
Target: PABPC1L2, full length, GST fusion (mouse, UniProt A0ABA7IW68)
Method: RNAcompete
Form: RNA
Matrix: in vitro
Concentration: 20 nM
Notes: 7-mer, probes averaged, single round
Relative to: mean of 7-mers
Reading: higher = stronger binding
Residues (chain): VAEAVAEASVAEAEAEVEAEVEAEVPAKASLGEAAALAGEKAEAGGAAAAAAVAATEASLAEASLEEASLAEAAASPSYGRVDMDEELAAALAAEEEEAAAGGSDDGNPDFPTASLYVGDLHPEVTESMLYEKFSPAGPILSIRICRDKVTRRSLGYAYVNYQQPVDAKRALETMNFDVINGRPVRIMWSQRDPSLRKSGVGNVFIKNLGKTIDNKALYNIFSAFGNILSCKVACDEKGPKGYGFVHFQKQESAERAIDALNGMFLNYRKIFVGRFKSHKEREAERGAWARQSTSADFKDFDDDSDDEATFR
Sequence | 7-mer Z-score
AAGCGAC | 0.428
GUUCUAC | -0.309
CUCCGUC | -0.418
UUCCUGA | -0.184
UCCCAAC | -0.162
UAUACCA | -0.157
UGCCGCC | -0.237
UCCAACC | -0.219
AACUACU | 0.0315
CUCCUCC | -0.36
CUCAGGU | -0.0863
CCGAUGC | -0.175

Other studies, line by line
Sequence | target | test | system | conditions | how to read | endpoint | result
GGGAGUUCUACAGUCCGACGAUCAAUAAUGAACCGUAUUAAAGAAACAUUCUCGUCUUCCUUUACCUUUAAUCCCCUAAUACCCCGUCUACUUUUUAAAUUUUCAGACUUCACUGCUUUUUGAAUUCAUAAUUCUAAUUUUCACAACAGAGGAUUGAGCAUCA | RING finger protein unkempt homolog, zinc fingers 1-6, SBP tag (UNK, Homo sapiens, UniProt Q9C0B0, residues 30-357) | RNA Bind-n-Seq | RNA, in vitro | 100 nM, RNA with constant flanks, ends assumed | relative to: input RNA pool, higher = stronger binding | bound/input enrichment | 0.619 ratio

Repeated from above (sample 3):
Sequence | 7-mer Z-score
UCCCAAC | -0.162
UGCCGCC | -0.237
CUCCUCC | -0.36
UUCCUGA | -0.184
UCCAACC | -0.219
